Experimental data from different studies.
Numbered parts are unrelated; each lists some results of a single study. Positions count from the first letter of the parent shown.

Study 1 — method: RNA Bind-n-Seq; form: RNA; sample: in vitro; tested at: not given; reference: input RNA pool; direction: higher = stronger binding
Target: RING finger protein unkempt homolog, zinc fingers 1-6, GST-SBP tag (UNK, Homo sapiens, UniProt Q9C0B0, residues 30-357)
Sequence of UniProt Q9C0B0 (30-357, looked up): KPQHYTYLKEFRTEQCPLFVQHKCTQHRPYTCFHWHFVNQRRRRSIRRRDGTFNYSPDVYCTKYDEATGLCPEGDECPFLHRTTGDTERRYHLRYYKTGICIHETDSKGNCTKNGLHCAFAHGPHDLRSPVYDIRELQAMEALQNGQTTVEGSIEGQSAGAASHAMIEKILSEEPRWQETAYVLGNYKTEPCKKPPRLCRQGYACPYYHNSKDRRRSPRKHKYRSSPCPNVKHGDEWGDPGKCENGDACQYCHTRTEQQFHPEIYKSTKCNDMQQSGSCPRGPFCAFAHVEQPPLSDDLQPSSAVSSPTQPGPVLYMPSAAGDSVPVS
Notes: RNA with constant flanks, human and mouse sites, ends assumed
All sequences stand within: GGGAGUUCUACAGUCCGACGAUC … CAACAGAGGAUUGAGCAUCA
Sequence	bound/input enrichment [ratio]
GUCCCCCUCUUGCUAAAUAAUGUGAAAGGGGAGCCCCCAGAGGACUCACUGCCUGUAGAUCACUUUCAGACACAAACUGAGCCAGUGGACUUGUCAAUCAACAAAGCCAGGACCUCCCCU	0.21
CAGGGUCUUUAUUGUGUGGCUAUUCGUGAUUUCAAACAGGCAGCUGAACUCUUCCUUGACACUGUUUCAACAUUUACAUCCUAUGAACUCAUGGAUUAUAAAACAUUUGUGACUUAUACU	0.137
CCUACUAUAAACAACUCAGGGCAGUAUUCUCGAUAUCCUUACAGUAACCUAAAUCAGGGAUUAGUUAACAAUACAGGGAUGAAUCAAAAUUUAGGCCUUACAAAUAAUACUCCAAUGAAU	4.76
UCAAAGUUCAUCUCUCAUUCAGCAUGAGAGAACUCAUACUGGAGAGAAGCCCUAUGAAUGUAAUGAAUGUGGGAGAGCCUUCCGAAAAAAAACCAACCUGCAUGAUCAUCAGAGAAUUCA	0.168
AAGGACCCUGAAGGUUGUGACAAAAGUGAUGACAAAAACACUGUAAACCUCUUUGGGAAAGUUAUUGAAACCACAGAGCAAGAUCAGGAGCCCAGCGAGGCCACCGUUGGGAAUGGUGAG	0.32
ACGGCUCGUAGUUUAUUAAAUGAUGUCCAGUUCGGCCAGUUUGGAGAUGACCCAAAGGAAGAAGUCAUGGUGUUGGAGAGGAUCUUACUGCAGACCAUAAAGUUUGACUUACAAGUAGAG	2.45
AAAAAGGACAAGAAGACCAAAAAGACGUUCUUUGAAGAGCUGGCAGUAGAGGACAAACAAGCUGGGGAAGAGGAAAAAUUGCAGAAGGAGAAGGAGCAGCAACAGCAACAGCAGCAACAG	0.459
AGCCAAUGGUGAUCAUGGAAUGGAGGGGAAUAACACUGCAGGGUCUCCAACUGACUUCCUUGAAGAGAGAGUGGACUAUCCGGAUUAUCAGAGCAGCCAGAACUGGCCAGAAGAUGCAAG	0.187

Study 2 — method: RNA Bind-n-Seq; form: RNA; sample: in vitro; tested at: 365 nM; reference: no-protein control; direction: higher = stronger binding
Target: RNA binding protein fox-1 homolog 2, RRM domain, GST-SBP tag (RBFOX2, Homo sapiens, UniProt O43251-10, residues 100-194)
Notes: natural RNA segment, single round, ends assumed
All sequences stand within: GGGAGUUCUACAGUCCGACGAUC … UGGAAUUCUCGGGUGCCAA
Residues (chain): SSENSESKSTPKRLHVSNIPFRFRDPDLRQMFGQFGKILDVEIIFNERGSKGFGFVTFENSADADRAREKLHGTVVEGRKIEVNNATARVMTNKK
Sequence	RBNS enrichment (R)
CCCACCUGCUUAUUUAAAAUCAAGUUUAUUGUAGAAAUGGUGUGGUGUUGAUGUGUGUUUUCCCUAAAACUCUAAUUUCAUCUCAUCUGUGGGCAGCCCUGCUCUCUGGA	0.204
GAAAGCCUAAGUGUAAAUAUAUAUCUCUUUAUAUUUGUCUAGUCUGGUAAAAGGGAAUUCAGAAGAUUGCCUUAGAGUCUAAUUCCCCCAUGAAAGAUUAUUAAUUACAU	1.49
UGCUCAUGAGAGAUGUCAGGCUUCCUGGAGGCAUCAGGCUUUGAGCCCUGCUGGGGUCCAACUGACCUGGGACCAGGUGUCGCGCAGAGAUGUGCCUCAUUCUGUGCCUC	0.28
GUCUGCAGUAUUCAUUUUAAAAAUAUUGACAUGCUUUUCCCCUCCCCUCCAUGAAGUCAGUGCCAGAGUGAGCCAGAUUGGGAGGUUGGGGUUUUGUUUGGUUGGCUUGG	1.42
CUUCACCACUGUAGAUCCCAUGCAUGGAUCUAUGUAGUAUGCUCUGACUCUAAUAGGACUGUAUAUACUGUUUUAAGAAUGGGCUGAAAUCAGAAUGCCUGUUUGUGGUU	10.1
AUUUUGAUACCAGAAGGGAAAGCUUCAUUCUCCUUGUUGUUGGUUGUUUUUUCCUUUGCUCUUUCCCCCUUCCAUCUCUGACUUAAGCAAAAGAAAAAGAUUACCCAAAA	0.472
GUAAACGAUACAGGGAACUGGUUGAAGAGAUUGGAAUUUUAUUUAGUUGGCUUUGUUUUCCUUAAAGGAUAAAACUUGCAUUGGACAAUCAAGGACAAUGAAGCCUCACC	0.987
UCAGCUCUAUUACGACCCUUCUCAUCCCUAUAGAAGAGGUUGCUAAGUAUCCACUUCCCUUUCUAUGAGCCCCAGCUGCUAUUUUGAGACAUCCUGGGGAAAUCGAGCAG	0.383

Study 3 — target: CCNE2, cyclin fold, Cln2 fusion (human); method: yeast growth competition, sequencing; sample: yeast; notes: weak parent motif; reference: not given; direction: higher = stronger binding
Starting sequence: ORC1 docking peptide (human); PRARKRLELGNLG
Variant	normalised enrichment score
G13Q	-0.0484
N11H	0.395
L7N	-0.0222
L12D	-0.176
K5Y	0.38
A3E	1.38
R2T	0.225
N11Q	-0.294
P1I	0.703
R6D	0.0618
K5S	0.453
E8A	0.672
L12C	0.867
L7R	1.24
K5I	0.821
P1R	0.902
N11G	1.15

Further values, each from its own experiment
Substance	target	assay	system	setting	scale	endpoint	value
PhoQ, residues 284 288 289 292 302 303 GNNTDL	PhoP, residues 12 14 15 18 19 QWHVF (Escherichia coli, UniProt P23836)	Sort-seq, measured: YFP reporter	E. coli	PhoQ-PhoP variant library, together with: 10 µM Mg2+	reference: high Mg2+ state, higher = stronger signaling	fold induction	3.59
